Published values collected from several papers.
A part holds a random share of what one study measured.

Series 1
Target: TAR DNA-binding protein 43, full length, His tag (TARDBP, Homo sapiens, UniProt Q13148, residues 1-414)
Technique: RNA Bind-n-Seq
Form: RNA
Medium: in vitro
Tested at: 20 nM
Notes: 6-mer, flanks averaged, single round
Together with: 150 mM KCl
Reference: input library
Reading: higher = stronger binding
| Oligonucleotide | 6-mer enrichment (R) |
| --- | --- |
| ACGGGG | 4.28 |
| CUGGAG | 1.43 |
| GUUGUC | 0.733 |
| CAUACG | 0.666 |
| UCGCCU | 0.614 |

Series 2
Target: Histone acetyltransferase KAT6A, winged helix 1, GST fusion (KAT6A, Homo sapiens, UniProt Q92794, residues 1-85)
Technique: protein binding microarray
Form: double-stranded DNA, one strand shown
Medium: in vitro
Tested at: not given
Notes: 8-mer, flanks averaged, mean of 2 arrays, mostly near background
Reference: not given
Reading: higher = stronger binding
Target sequence (chain): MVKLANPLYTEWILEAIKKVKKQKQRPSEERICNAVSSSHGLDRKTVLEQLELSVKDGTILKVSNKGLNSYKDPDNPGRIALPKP
| Oligonucleotide | E-score |
| --- | --- |
| ACGCGCAC | 0.373 |
| GCAACACA | -0.025 |
| GAGCTTAA | -0.209 |
| CCATTGAA | -0.0995 |
| AGAAGAGG | -0.0459 |
| CTTACCGC | 0.301 |

Series 3
Target: Sal-like protein 4, full length isoform A (SALL4, Homo sapiens, UniProt Q9UJQ4, residues 1-1053)
Sequence of UniProt Q9UJQ4 (whole entry, looked up): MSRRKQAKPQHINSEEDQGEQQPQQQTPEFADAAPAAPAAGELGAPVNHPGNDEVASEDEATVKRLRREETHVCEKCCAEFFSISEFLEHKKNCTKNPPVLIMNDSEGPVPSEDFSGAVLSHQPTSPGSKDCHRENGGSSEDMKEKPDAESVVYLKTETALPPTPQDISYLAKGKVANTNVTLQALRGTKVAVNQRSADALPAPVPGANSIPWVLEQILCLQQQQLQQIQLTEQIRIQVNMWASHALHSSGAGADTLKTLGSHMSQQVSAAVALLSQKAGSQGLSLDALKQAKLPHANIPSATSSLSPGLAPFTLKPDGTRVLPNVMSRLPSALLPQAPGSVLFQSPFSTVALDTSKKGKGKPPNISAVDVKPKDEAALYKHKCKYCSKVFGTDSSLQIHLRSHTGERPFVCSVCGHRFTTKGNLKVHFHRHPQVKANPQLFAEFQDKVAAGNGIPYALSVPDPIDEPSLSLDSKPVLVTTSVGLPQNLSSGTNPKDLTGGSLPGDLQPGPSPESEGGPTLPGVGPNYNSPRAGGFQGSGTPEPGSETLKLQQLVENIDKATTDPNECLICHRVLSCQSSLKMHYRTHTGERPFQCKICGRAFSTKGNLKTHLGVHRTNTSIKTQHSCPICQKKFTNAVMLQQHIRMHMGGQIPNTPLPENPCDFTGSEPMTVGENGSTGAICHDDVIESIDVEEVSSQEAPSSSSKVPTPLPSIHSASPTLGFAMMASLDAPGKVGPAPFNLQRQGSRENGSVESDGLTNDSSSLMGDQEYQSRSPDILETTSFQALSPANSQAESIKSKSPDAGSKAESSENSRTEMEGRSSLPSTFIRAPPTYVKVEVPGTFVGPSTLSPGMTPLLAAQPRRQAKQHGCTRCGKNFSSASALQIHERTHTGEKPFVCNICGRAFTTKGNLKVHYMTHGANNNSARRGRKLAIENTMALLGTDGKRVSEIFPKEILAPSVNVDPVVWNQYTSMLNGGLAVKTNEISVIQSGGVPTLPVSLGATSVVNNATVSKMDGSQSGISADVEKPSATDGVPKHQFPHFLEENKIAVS
Technique: universal PBM
Form: double-stranded DNA, one strand shown
Medium: in vitro
Tested at: 600 nM
Notes: 8-mer, flanks averaged, mean of replicates
Reading: higher = stronger binding
| Oligonucleotide | E-score |
| --- | --- |
| GCAGTCTA | 0.0165 |
| AAGCGGAT | -0.103 |
| GAGTTTAC | 0.0734 |
| CTTGAATC | 0.0909 |
| GTAAGGAC | -0.161 |

Single results of other studies
| Molecule | target | assay | test system | setting | how to read | quantity | value |
| --- | --- | --- | --- | --- | --- | --- | --- |
| PhoQ, residues 284 288 289 292 302 303 DDMDFR | PhoP, residues 12 14 15 18 19 LHTVM (Escherichia coli, UniProt P23836) | Sort-seq, measured: YFP reporter | E. coli | PhoQ-PhoP variant library, together with: 10 µM Mg2+ | reference: high Mg2+ state, higher = stronger signaling | fold induction | 0.812 |

For quick reference, copied from above (single results of other studies):
| Molecule | target | assay | test system | setting | how to read | quantity | value |
| --- | --- | --- | --- | --- | --- | --- | --- |
| PhoQ, residues 284 288 289 292 302 303 DDMDFR | PhoP, residues 12 14 15 18 19 LHTVM (Escherichia coli, UniProt P23836) | Sort-seq, measured: YFP reporter | E. coli | PhoQ-PhoP variant library, together with: 10 µM Mg2+ | reference: high Mg2+ state, higher = stronger signaling | fold induction | 0.812 |
